# Assay results from different studies.
# Numbered parts are unrelated; each lists some results of a single study. Values joined by “and” are separate records of one study, mostly repeats; a detail may differ.
# Chain of UniProt Q99808 (whole entry, looked up): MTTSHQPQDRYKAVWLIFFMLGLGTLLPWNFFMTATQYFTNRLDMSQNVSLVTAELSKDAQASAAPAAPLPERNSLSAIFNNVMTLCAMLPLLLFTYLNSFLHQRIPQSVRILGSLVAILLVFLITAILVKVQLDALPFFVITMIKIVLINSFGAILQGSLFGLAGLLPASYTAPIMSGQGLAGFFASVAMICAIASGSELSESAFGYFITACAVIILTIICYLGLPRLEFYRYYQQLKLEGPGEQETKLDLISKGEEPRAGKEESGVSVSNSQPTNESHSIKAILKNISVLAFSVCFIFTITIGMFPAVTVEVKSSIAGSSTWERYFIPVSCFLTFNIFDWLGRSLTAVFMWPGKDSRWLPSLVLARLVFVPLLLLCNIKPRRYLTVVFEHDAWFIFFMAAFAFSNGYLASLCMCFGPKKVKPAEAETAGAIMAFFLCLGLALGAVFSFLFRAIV

# Sample 1
# Target: Dihydroxy-acid dehydratase, chloroplastic (DHAD, Arabidopsis thaliana, UniProt Q9LIR4)
# Chain of UniProt Q9LIR4 (whole entry, looked up): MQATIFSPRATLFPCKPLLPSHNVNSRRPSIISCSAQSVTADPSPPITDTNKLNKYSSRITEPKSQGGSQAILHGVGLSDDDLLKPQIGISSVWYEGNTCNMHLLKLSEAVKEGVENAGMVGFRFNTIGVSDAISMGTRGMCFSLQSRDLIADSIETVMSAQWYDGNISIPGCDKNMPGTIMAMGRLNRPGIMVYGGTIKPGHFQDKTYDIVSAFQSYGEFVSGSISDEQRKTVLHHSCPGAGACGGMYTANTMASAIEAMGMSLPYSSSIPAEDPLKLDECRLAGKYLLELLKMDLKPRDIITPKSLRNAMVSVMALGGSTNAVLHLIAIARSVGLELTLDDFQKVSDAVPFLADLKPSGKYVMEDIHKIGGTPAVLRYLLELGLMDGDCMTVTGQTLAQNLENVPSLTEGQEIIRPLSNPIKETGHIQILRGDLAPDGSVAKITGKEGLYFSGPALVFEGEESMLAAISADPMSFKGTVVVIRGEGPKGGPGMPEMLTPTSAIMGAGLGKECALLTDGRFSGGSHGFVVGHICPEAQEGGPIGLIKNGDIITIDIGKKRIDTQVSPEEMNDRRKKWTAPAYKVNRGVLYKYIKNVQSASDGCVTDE
# Technique: microscale thermophoresis
Structure (SMILES),Kd [µM]
O=C(O)C1(O)Oc2cc(Br)ccc2N(Cc2ccccc2)C1=O (stereo not drawn),1.26
CN1C(=O)C(O)(C(=O)O)Oc2cc(F)ccc21 (stereo not drawn),219
CC(C)=CCN1C(=O)C(O)(C(=O)O)Oc2cc(F)ccc21 (stereo not drawn),249

# Further values, each from its own experiment
# PKMYT1: Membrane-associated tyrosine- and threonine-specific cdc2-inhibitory kinase (PKMYT1, Homo sapiens, UniProt Q99640)
# Chain of UniProt Q99640 (whole entry, looked up): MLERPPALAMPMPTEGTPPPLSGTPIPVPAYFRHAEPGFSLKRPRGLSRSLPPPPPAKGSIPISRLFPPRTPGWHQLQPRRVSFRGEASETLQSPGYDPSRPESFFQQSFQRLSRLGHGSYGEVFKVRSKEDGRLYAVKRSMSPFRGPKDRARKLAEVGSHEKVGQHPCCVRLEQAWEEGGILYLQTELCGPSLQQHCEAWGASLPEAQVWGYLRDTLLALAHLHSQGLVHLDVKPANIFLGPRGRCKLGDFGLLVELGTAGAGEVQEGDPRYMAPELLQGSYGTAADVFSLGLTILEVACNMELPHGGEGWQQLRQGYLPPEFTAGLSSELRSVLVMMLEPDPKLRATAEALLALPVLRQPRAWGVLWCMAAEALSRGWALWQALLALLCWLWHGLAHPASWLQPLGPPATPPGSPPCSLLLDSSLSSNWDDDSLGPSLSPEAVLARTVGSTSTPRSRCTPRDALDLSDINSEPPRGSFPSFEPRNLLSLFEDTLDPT
Structure (SMILES),target or system,test,system,setting,scale,measurement,result
Cc1ccc(O)c(C)c1-c1cnc2[nH]c(-c3cnc(N4CC5(CC(CN6CCN(c7ccc(NC8CCC(=O)NC8=O)cc7F)CC6)C5)C4)nc3)cc2c1C#N (stereo not drawn),,ultracentrifugation,mouse plasma,"2 µM, 4 h, pH 7.4",,fraction unbound,0.011
COc1cc(C(=O)OCCCN2CCCN(CCCOC(=O)c3cc(OC)c(OC)c(OCc4ccc([N+](=O)[O-])cc4)c3)CC2)cc(OC)c1OC,"SLC29A1 (Homo sapiens, UniProt Q99808)",inhibitor,,"10 pM, unit not given, with: [3H]adenosine",reference: normalised control,adenosine uptake,1.13 and 0.773 and 1 and 1.16 and 0.932 and 0.713 and 0.892
Cc1ccc(O)c(C)c1-c1cnc2[nH]c(-c3cnc(N4CCC(CN5CCN(c6ccc(NC7CCC(=O)NC7=O)cc6F)CC5)CC4)nc3)cc2c1C#N (stereo not drawn),,,"male Sprague-Dawley rat, plasma","intravenous, 1 mg/kg",,clearance,8.6 mL/min/kg
Cc1nc(C)c(C=[N+]([O-])C(C)(C)C)nc1C,,footprint test,MPTP-induced Parkinson's disease mouse model,"90 mg/kg, trial 1",,corridor crossing time,5.31 s and 6.72 s and 4.44 s and 5.5 s and 5.81 s and 5.55 s and 4.98 s and 7.11 s
Cc1ccc(O)c(C)c1-c1cnc2[nH]c(-c3cnc(N4CCC(CCN5CCN(c6ccc7c(c6)C(=O)N(C6CCC(=O)NC6=O)C7=O)CC5)CC4)nc3)cc2c1C#N (racemic),PKMYT1,"binding, HTRF",,1.37 nM,,inhibition,15.1% and 15.4%
Cc1ccc(O)c(C)c1-c1cnc2[nH]c(-c3cnc(N4CCC5(CC4)CC(N4CCN(c6ccc(NC7CCC(=O)NC7=O)cc6F)CC4)CO5)nc3)cc2c1C#N (stereo not drawn),PKMYT1,"protein level, degrader",MDA-MB-157,,,Dmax,75%

# Excerpt of the above (sample 1):
Structure (SMILES),Kd [µM]
CC(C)=CCN1C(=O)C(O)(C(=O)O)Oc2cc(F)ccc21 (stereo not drawn),249
